Experimental data pooled from the literature.
± gives the spread as reported.
Organism: Plasmodium falciparum

Cc1c(-c2n[nH]c3nc(C(F)(F)F)ccc23)c[nH]c1C(=O)N1CC(F)(F)C1  EC50 (parasite growth; 3D7): 200 nM
O=S(=O)(c1ccc(-c2ccc3nccc(Nc4ccnnc4)c3c2)cc1)N1CCOCC1  EC50 (parasite growth, SYBR Green; TM91C235): > 20000 nM
Cc1nnc(-c2ccc3ccn(CC(=O)Nc4ccccc4Cl)c3c2)o1  EC50 (cytosolic Na+ increase rate, SBFI fluorescence; 3D7; isolated trophozoites): ~400 nM
Cc1c(Cc2ccc(C(F)(F)F)nc2)c[nH]c1C(=O)NC(C)c1ncn(C)n1 (stereo not shown)  EC50 (parasite growth; 3D7): 1300 nM
O=C(NCc1nc(-c2ccccc2)cs1)[C@H]1CCCN(C(=O)COCCF)C1  EC50 (SYBR Green growth; asexual blood-stage parasites, 3D7; 72 h): 25 ± 4.5 nM
COc1ccc(OCCCO)cc1-c1cn2cc(-c3nnc(NCCCCc4ccccc4)o3)ccc2n1  EC50 (parasite growth, LDH colorimetric; 3D7 Hyp1-Nluc; 72 h): 2620 nM
COCC(=O)N1CCC[C@H](C(=O)NCc2nc(-c3ccc(C4CC4)cc3)cs2)C1  EC50 (SYBR Green growth; asexual blood-stage parasites, 3D7; 72 h): 24 ± 7.4 nM
O=S(=O)(c1ccc(-c2ccc3nccc(Nc4ncc(Cl)cn4)c3c2)cc1)N1CCOCC1  EC50 (parasite growth, SYBR Green; TM91C235): 1500 nM
CC(=O)Nc1cc(Oc2ccc3c(c2)nc(Nc2ccc(F)cc2F)n3C)ccn1  EC50 (parasite growth, SYBR Green I; Dd2; 72 h): 2400 ± 400 nM
Cn1nc2c(=O)n(C3CC3)ccc2c1Cc1ccc(C(F)(F)F)nc1  EC50 (parasite growth; 3D7): 631 nM
CCOCC(=O)N1CCC[C@H](C(=O)NCc2nc(-c3ccc(C#N)cc3)cs2)C1  EC50 (72 h): 6.6 nM
CCCn1ccc2c(Cc3ccc(C(F)(F)F)nc3)n(C)nc2c1=O  EC50 (parasite growth; 3D7): 12600 nM
CCn1cc(-c2nc(C)no2)c(=O)c2cc(F)c(N3CCC(Cc4ccccc4)CC3)cc21  EC50 (parasite growth, [3H]hypoxanthine incorporation; NF54; 72 h): 3 nM
COCC(=O)N1CCC[C@H](C(=O)NCc2nc(-c3ccc(Cl)cc3)cs2)C1  EC50 (SYBR Green growth; asexual blood-stage parasites, 3D7; 72 h): 18 ± 4.5 nM
CC1(C)c2nc(-c3ccc(F)cc3)c(Nc3ccc(F)cc3)n2CCN1C(=O)CN  EC50 (parasite growth, [3H]hypoxanthine incorporation; Dd2; 72 h): 8 nM
Cc1ccc(-c2csc(CNC(=O)[C@H]3CCCN(C(=O)COCCF)[C@H]3C)n2)cn1  EC50 (SYBR Green growth; asexual blood-stage parasites, 3D7; 72 h): 4.8 ± 1.8 nM
O=S(=O)(c1ccc(-c2ccc3nccc(Nc4cncs4)c3c2)cc1)N1CCOCC1  EC50 (parasite growth, SYBR Green; D6): 7000 nM
CCN1CCN(Cc2ccc(Nc3nc4ccc(Oc5ccnc(NC(=O)C6CCN(C)CC6)c5)cc4[nH]3)cc2C(F)(F)F)CC1  EC50 (parasite growth, SYBR Green I; Dd2; 72 h): 400 ± 40 nM
CCOCC(=O)N1CCCC(C(=O)NCc2nc(-c3ccccc3)co2)C1 (stereo not shown)  EC50 (SYBR Green growth; asexual blood-stage parasites, 3D7; 72 h): 220 ± 46 nM
Cn1nc2c(=O)n(C3CC3)ncc2c1[C@](N)(c1ccc(C(F)(F)F)c(Cl)c1)C1CC1  EC50 (parasite growth, parasite reduction ratio; 3D7): 3.3 nM
Cc1nnc(Nc2ccnc3ccc(-c4ccc(S(=O)(=O)N5CCOCC5)cc4)cc23)nc1C  EC50 (parasite growth, SYBR Green; D6): 240 nM
CCN1CCN(Cc2ccc(Nc3nc4ccc(Oc5ccnc(NC(C)=O)c5)c(C)c4n3C)cc2C(F)(F)F)CC1  EC50 (parasite growth, SYBR Green I; Dd2; 72 h): 2600 ± 400 nM
COc1ccc(Nc2ccnc3ccc(-c4ccc(S(=O)(=O)N5CCOCC5)cc4)cc23)cc1Cl  EC50 (parasite growth, SYBR Green; TM91C235): 160 nM
COCC(=O)N1CCC[C@H](C(=O)NCc2nc(-c3cccnc3)cs2)C1  EC50 (SYBR Green; 3D7; 72 h): 90 ± 15 nM
CC[C@](O)(c1cnc(C(F)(F)F)c(Cl)c1)c1c2ccn(C3CC3)c(=O)c2nn1C  EC50 (parasite growth; 3D7): 398 nM
COCC(=O)N1CCC[C@H](C(=O)NCc2nc(-c3ccc(OC)cc3)cs2)C1  EC50 (SYBR Green; 3D7; 72 h): 31 ± 5 nM
CCn1cc(-c2nc(C)no2)c(=O)c2cc(F)c(N3CCC(C)CC3)cc21  EC50 (parasite growth, [3H]hypoxanthine incorporation; 7G8; 72 h): 10 nM
Cc1cc(C(C)NC(=O)c2[nH]cc(Cc3ccc(F)c4ccncc34)c2C)no1 (stereo not shown)  EC50 (parasite growth; 3D7): 2 to 4 nM
Cn1nc2c(=O)n(C3CC3)cnc2c1[C@](O)(c1cnc(C(F)(F)F)c(Cl)c1)C(F)(F)F  EC50 (parasite growth): 1.7 nM
CNS(=O)(=O)c1ccccc1Nc1nc(Nc2ccc(N3CCOCC3)cc2OC)ncc1Br  EC50 (parasite growth, LDH colorimetric; 3D7 Hyp1-Nluc; 72 h): 290 nM
O=S(=O)(c1ccc(-c2ccc3nccc(Nc4nnc(C5CC5)s4)c3c2)cc1)N1CCOCC1  EC50 (parasite growth, SYBR Green; TM91C235): 860 nM
COc1ccc(NC(=O)N2CCCCN3[C@H](CN(C)S(C)(=O)=O)[C@H](c4ccc(C#Cc5ccccc5)cc4)[C@@H]3C2)cc1  EC50 (blood-stage growth inhibition; Dd2): 26 nM
CCCOCC(=O)N1CCC[C@H](C(=O)NCc2nc(-c3ccccc3)cs2)C1  EC50 (SYBR Green growth; asexual blood-stage parasites, 3D7; 72 h): 300 ± 59 nM
CCN(c1ccc(C)cc1)c1ccc(NC(=O)CN(C)c2ccccc2N2CCCC2=O)cn1  EC50 (female gamete formation; NF54 stage V gametocytes; 48 h): 766 nM
O=S(=O)(c1ccc(-c2ccc3nccc(Nc4ccc5[nH]nnc5c4)c3c2)cc1)N1CCOCC1  EC50 (parasite growth, SYBR Green; W2): 630 nM
CCn1cc(C2CC2)c2c(CN3CCC4(CCC4)CC3)n(C)nc2c1=O  EC50 (parasite growth; 3D7): 15.8 nM
O=S(=O)(c1ccc(-c2ccc3nccc(Nc4ccc(OCc5cccc(F)c5)cc4)c3c2)cc1)N1CCOCC1  EC50 (parasite growth, SYBR Green; D6): 640 nM
Cn1cc(-c2cnc3[nH]cc(-c4cn(Cc5cccc(F)c5F)nn4)c3c2)cn1  EC50 (parasite growth, LDH colorimetric; 3D7 Hyp1-Nluc; 72 h): 468 nM
Cn1nc2c(=O)n(C)ccc2c1Cc1ccc(C(F)(F)F)nc1  EC50 (parasite growth; 3D7): 4500 nM
CCCCN(CCCC)CC(O)c1cc(Cl)cc2c1-c1ccc(Cl)cc1/C2=C/c1ccc(Cl)cc1 (stereo not shown)  EC50 (gametocyte viability, luciferase; stage V gametocytes; 48 h): 2380 nM
Cc1c(C(=O)NC(C)c2nc[nH]n2)[nH]c(Cl)c1C1(c2ccc(C(F)(F)F)nc2)CC1 (stereo not shown)  EC50 (parasite growth; 3D7): 130 ± 7.1 nM
CCN1CCN(Cc2ccc(Nc3nc4ccc(Oc5ccnc(NC(C)=O)c5)c5c4n3CCC5)cc2C(F)(F)F)CC1  EC50 (parasite growth, SYBR Green I; Dd2; 72 h): > 5000 nM
CONC(=O)N1CCC[C@H](C(=O)NCc2nc(-c3ccccc3)cs2)C1  EC50 (SYBR Green growth; asexual blood-stage parasites, 3D7; 72 h): 130 ± 36 nM
CCn1cc(C)c2c(Cc3ccc(C(F)(F)F)nc3)n(C)nc2c1=O  EC50 (parasite growth; 3D7): 39.8 nM
CC(C)(N)COCC(=O)N1CCC[C@H](C(=O)NCc2nc(-c3ccc(C(F)(F)F)cc3)cs2)C1  EC50 (SYBR Green growth; asexual blood-stage parasites, 3D7; 72 h): 8.4 ± 2.4 nM
Cc1c(-c2c[nH]c3cc(C(F)(F)F)ccc23)c[nH]c1C(=O)NC(C)c1ccn(C)n1 (stereo not shown)  EC50 (parasite growth; 3D7): > 5000 nM

A few entries again:
CCCOCC(=O)N1CCC[C@H](C(=O)NCc2nc(-c3ccccc3)cs2)C1  EC50 (SYBR Green growth; asexual blood-stage parasites, 3D7; 72 h): 300 ± 59 nM
O=S(=O)(c1ccc(-c2ccc3nccc(Nc4cncs4)c3c2)cc1)N1CCOCC1  EC50 (parasite growth, SYBR Green; D6): 7000 nM
CCN1CCN(Cc2ccc(Nc3nc4ccc(Oc5ccnc(NC(C)=O)c5)c(C)c4n3C)cc2C(F)(F)F)CC1  EC50 (parasite growth, SYBR Green I; Dd2; 72 h): 2600 ± 400 nM
Cc1nnc(Nc2ccnc3ccc(-c4ccc(S(=O)(=O)N5CCOCC5)cc4)cc23)nc1C  EC50 (parasite growth, SYBR Green; D6): 240 nM
CC[C@](O)(c1cnc(C(F)(F)F)c(Cl)c1)c1c2ccn(C3CC3)c(=O)c2nn1C  EC50 (parasite growth; 3D7): 398 nM
COc1ccc(NC(=O)N2CCCCN3[C@H](CN(C)S(C)(=O)=O)[C@H](c4ccc(C#Cc5ccccc5)cc4)[C@@H]3C2)cc1  EC50 (blood-stage growth inhibition; Dd2): 26 nM
Cc1cc(C(C)NC(=O)c2[nH]cc(Cc3ccc(F)c4ccncc34)c2C)no1 (stereo not shown)  EC50 (parasite growth; 3D7): 2 to 4 nM
